Published values of several laboratories.
Every numbered part comes from another study and shows a few of its results, in no order. Substitutions count along the parent as printed.

Set 1
Target: UBE2U UBC core domain (UniProt Q5VVX9)
Method: yeast two-hybrid
Medium: yeast
Setting: mostly zero background
Reference: not given
Reading: higher = stronger interaction
B1: RNF6 RING domain (UniProt Q9Y252); chain NSIDSELGKICSVCISDYVTGNKLRQLPCMHEFHIHCIDRWLSENCTCPICRQPVLGSNIAN
B2: MARCHF1 RING domain (UniProt Q8TCQ1); chain TAPRSQSRLSVCPSTQDICRICHCEGDEESPLITPCRCTGTLRFVHQSCLHQWIKSSDTRCCELCKYDFIMETKLKPLRKWE
B3: VPS8 RING domain (UniProt Q8N3P4); chain TRGLNPKQDYCSICLQQYKRRQEMADEIIVFSCGHLYHSFCLQNKECTVEFEGQTRWTCYKCSSSNKVGKLSE
B4: HLTF RING domain (UniProt Q14527); chain LILSSGSDEECAICLDSLTVPVITHCAHVFCKPCICQVIQNEQPHAKCPLCRNDIHEDNLLE
B5: BFAR RING domain (UniProt Q9NZS9); chain GPQISVSEFSCHCCYDILVNPTTLNCGHSFCRHCLALWWASSKKTECPECREKWEGFPKVS
B6: MKRN3 RING domain (UniProt Q13064); chain FAVQRGMDKVCGICMEVVYEKANPNDRRFGILSNCNHSFCIRCIRRWRSARQFENRIVKSCPQCRVTSELVIPSE
Construct (chain): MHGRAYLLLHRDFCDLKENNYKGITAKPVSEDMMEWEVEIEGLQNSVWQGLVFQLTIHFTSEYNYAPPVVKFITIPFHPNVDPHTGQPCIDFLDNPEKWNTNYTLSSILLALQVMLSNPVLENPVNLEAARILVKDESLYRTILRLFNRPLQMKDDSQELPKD
Under “lacZ reporter activity”, `B1 (RNF6 RING domain)` is recorded as 0.
Under “lacZ reporter activity”, `B2 (MARCHF1 RING domain)` is recorded as 0.
For `FAEQPSVKLCCQLCCSVFKDPVITTCGHTFCRRCALKSEKCPVDNVKLTVVVNNI (TRAF7 RING domain (UniProt Q6Q0C0))`, “lacZ reporter activity” read 0.
`ASPKIFQKTKCSICNSALELPSVHFLCGHSFHQHCFESYSESDADCPTCLPENRKVMDMI (VPS11 RING domain (UniProt Q9H270))`: “lacZ reporter activity” 2790.
For `B3 (VPS8 RING domain)`, “lacZ reporter activity” read 0.
For `B4 (HLTF RING domain)`, “lacZ reporter activity” read 14400.
`B5 (BFAR RING domain)`: “lacZ reporter activity” 12200.
Under “lacZ reporter activity”, `DDVLTKDAGECVICLEELLQGDTIARLPCLCIYHKSCIDSWFEVNRSCPEHPAD (ZNRF1 RING domain (UniProt Q8ND25))` is recorded as 10900.
`LEALSSDFLACKICLEQLRAPKTLPCLHTYCQDCLAQLADGGRVRCPECRETVPVPPEGV (TRIM56 RING domain (UniProt Q9BRZ2))`: “lacZ reporter activity” 0.
For `LVKDFNPYITCYICKGYLIKPTTVTECLHTFCKTCIVQHFEDSNDCPRCGNQVHETNPLE (PCGF5 RING domain (UniProt Q86SE9))`, “lacZ reporter activity” read 0.
`B6 (MKRN3 RING domain)`: “lacZ reporter activity” 0.

Set 2
Target: BATF, bZIP domain (human)
Method: DHFR protein complementation
Medium: yeast
Setting: single substitutions, most at no-binding floor
Reference: wild-type JUN-FOS pair
Reading: higher = stronger binding
Parent: JUN, bZIP domain (human); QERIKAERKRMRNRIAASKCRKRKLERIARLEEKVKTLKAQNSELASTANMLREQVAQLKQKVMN; partner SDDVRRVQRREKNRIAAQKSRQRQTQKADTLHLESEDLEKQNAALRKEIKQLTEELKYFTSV
The binding fitness of `K39M` is reported as -0.305 natural log.
For `M51V`, the binding fitness was -0.0116 natural log.
With `V56S` the binding fitness was -0.851 natural log.
With `A40M` the binding fitness was -0.0974 natural log.
The binding fitness of `A57M` is reported as -0.0643 natural log.
`S43N` has a binding fitness of 0.0276 natural log.
The binding fitness of `Q41H` is reported as -0.162 natural log.
The binding fitness of `R53Y` is reported as -0.546 natural log.
With `M51T` the binding fitness was 0.0725 natural log.
`I28K` has a binding fitness of -0.0574 natural log.
With `L59N` the binding fitness was -0.296 natural log.
`N42Y` gave a binding fitness of -0.175 natural log.
`E33L` gave a binding fitness of -0.0737 natural log.
`S47E` gave a binding fitness of 0.135 natural log.
`N42E` gave a binding fitness of -0.637 natural log.
The binding fitness of `A57R` is reported as -0.0792 natural log.
The binding fitness of `T48V` is reported as -0.0506 natural log.

Set 3
Target: ABI1, truncated, D143A, DHFR fusion (Arabidopsis thaliana)
Method: DHFR PCA, deep sequencing
Medium: yeast
Setting: methotrexate growth selection, single substitutions
Added: (+)-ABA 710 µM
Reference: wild-type fitted maximum
Reading: higher = stronger binding
Parent: PYL1, truncated, DHFR fusion (Arabidopsis thaliana); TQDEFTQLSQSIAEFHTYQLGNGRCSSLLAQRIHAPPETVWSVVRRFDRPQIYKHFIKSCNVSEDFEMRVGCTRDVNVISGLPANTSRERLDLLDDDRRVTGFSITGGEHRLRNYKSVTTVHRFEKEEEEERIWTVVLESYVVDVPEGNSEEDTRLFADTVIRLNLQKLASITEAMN
`Q51M`: “relative binding score” 89.1%.
For `W134A`, “relative binding score” read 114%.
`H122L`: “relative binding score” 72.7%.
For `F124A`, “relative binding score” read 107%.
For `L164D`, “relative binding score” read 35.3%.
`Q7V`: “relative binding score” 106%.
`S117E` — result for “relative binding score”: 15.6%.
`R46E`: “relative binding score” 95.4%.
For `G108A`, “relative binding score” read 50.9%.
`T6P` — result for “relative binding score”: 112%.
`D3A`: “relative binding score” 102%.
`S63D`: “relative binding score” 107%.
`S26C`: “relative binding score” 104%.
`A158E` — result for “relative binding score”: -1%.
`R113F` — result for “relative binding score”: 99.3%.
For `I133T`, “relative binding score” read 107%.
Under “relative binding score”, `I33D` is recorded as -20.5%.
`L20D`: “relative binding score” 105%.
Under “relative binding score”, `R69Q` is recorded as 116%.
`R69G`: “relative binding score” 103%.
Under “relative binding score”, `E127W` is recorded as 96.5%.
`N77D`: “relative binding score” 96.2%.
`I52S`: “relative binding score” 100%.
`E174I`: “relative binding score” 89.4%.
Under “relative binding score”, `E89A` is recorded as -4.89%.

Set 4
Target: CCND3, cyclin fold, Cln2 fusion (human)
Method: yeast growth competition, sequencing
Medium: yeast
Setting: weak parent motif
Reference: not given
Reading: higher = stronger binding
Parent: WEE2 docking peptide (human); KELRQKLNFSYCE
`KEARQKLNFSYCE [L3A]` — result for “normalised enrichment score”: -0.0132.
`KELRQKLNFSACE [Y11A]`: “normalised enrichment score” -0.189.
Under “normalised enrichment score”, `KALRQKLNFSYCE [E2A]` is recorded as 0.291.
`AELRQKLNFSYCE [K1A]` — result for “normalised enrichment score”: -0.422.
`KELRQALNFSYCE [K6A]` — result for “normalised enrichment score”: 0.0031.
`KELRQKLNASYCE [F9A]` — result for “normalised enrichment score”: 0.432.
`KELRQKLNFSYCA [E13A]`: “normalised enrichment score” 0.287.

Set 5
Target: Interferon regulatory factor 5, full length, phosphomimetic (IRF5, Homo sapiens, UniProt Q13568-2, residues 1-514, S451D/S453D/S456D/S462D)
Method: protein-binding microarray
Form: double-stranded DNA, one strand shown
Medium: in vitro
Concentration: 940 nM top
Setting: 60-bp whole probe
Added: salmon DNA 0.4 mg/ml
Reference: random background probes
Reading: higher = stronger binding
Constant ends, left off below: GCCTAGCAC … GTCTTGATTCGCTTGACGCTGCTG
For `GGTGTTTTACAGGTTCTCTTTGTGCTA`, “fitted relative affinity” read 0.286 z-score.
`TCATATGTCATTTACATACTGTGCTAG`: “fitted relative affinity” 0.139 z-score.
Under “fitted relative affinity”, `TCATTTTTCTACTTCTCACTGTGCTAG` is recorded as 2.08 z-score.
Under “fitted relative affinity”, `GACGGTTTCGACACTGGGAACGTGCTA` is recorded as 6.96 z-score.
`GACGGTTTCGGACTGGGTACGTGCTAG` — result for “fitted relative affinity”: 6.32 z-score.
`TTCATTTTCTTTAACTCATTGTGCTAG`: “fitted relative affinity” 1.64 z-score.
`GACGGTTTCCTACTGCTGATGTGCTAG`: “fitted relative affinity” 0.901 z-score.
`GACGATTTCCTTCTCCTGACGTGCTAG` — result for “fitted relative affinity”: 0.748 z-score.
For `TTAGGTTTCCTTTCTCTTTAGTGCTAG`, “fitted relative affinity” read 2.72 z-score.
Under “fitted relative affinity”, `GACGATATCGACTATCGGGACGTGCTA` is recorded as 0.168 z-score.
`GACGGTTTCATTTTCCTGACGTGCTAG`: “fitted relative affinity” 4.97 z-score.
`TCATCTTTTTTTCTTTTACTGTGCTAG` — result for “fitted relative affinity”: 2.2 z-score.
`TTAGATTTCGGGTTCCGATTAGTGCTA`: “fitted relative affinity” 1.31 z-score.
`GACGGTTTCTTTATCCTGACGTGCTAG` — result for “fitted relative affinity”: 2.45 z-score.
`TTAGAACTGAGACTGGATTAGTGCTAG` — result for “fitted relative affinity”: -0.157 z-score.
`AAAATTTTGCTTCTAGAACAGTGCTAG` — result for “fitted relative affinity”: -0.511 z-score.

Some of these lines once more (set 3):
`N77D`: “relative binding score” 96.2%.
For `L164D`, “relative binding score” read 35.3%.
`R113F` — result for “relative binding score”: 99.3%.
For `W134A`, “relative binding score” read 114%.
`S26C`: “relative binding score” 104%.
`A158E` — result for “relative binding score”: -1%.
